Experimental data pooled from the literature.
Each line is one published result; not all experiments were run side by side. Several values in a cell are separate wells, animals, samples, runs or records. Numbers after ± are the reported error.

COc1cnc2cccc(N3CCc4c(cc(Cn5ccnc5C)cc4-c4cn(C)nc4C(F)(F)F)C3=O)c2c1 — EC50 (EOL1; cell growth, inhibitor; 120 h): 1.22 µM
O=C(C[C@@H](C(F)F)n1ccc(F)n1)N1CCC(O)(Cn2cnc3c(cnn3-c3ccc(F)cc3)c2=O)CC1 — cells in G2/M phase (CHP-212 resistant cells (pooled); PI flow cytometry; 0.1 µM, 24 h): 9.84% and 13.5% and 16.3%
CCn1cc(-c2cc(Cn3ccoc3=N)cc3c2CCN([C@@H](C)c2cc(OC)ccn2)C3=O)c(C(F)(F)F)n1 — EC50 (EOL1; cell growth, inhibitor; 120 h): 0.126 µM
CC(C)NCC(O)c1ccc(O)c(O)c1 (centres unmarked) — sarcomere length (ventricular cardiomyocytes, C57BL/6 mouse; dose not given, 0.588 s): 1.63 µm
CN1CCCC(CN2CCN(Cc3ccc(-c4cccc(-c5nc6ccccc6[nH]5)c4)cc3)CC2)C1 (centres unmarked) — IC50 (Plasmodium yoelii; 17XL; 384-well): > 20 µM
CC(C)(C)OC(=O)Nc1ccc(-c2cc(C(=O)NCCCCCCC(=O)NO)no2)cc1 — viability (HBL-1; 1 µM, 120 h): 0.169%
Cc1cc(Nc2ncc(Cl)c(Nc3ccccc3S(=O)(=O)C(C)C)n2)c(OC(C)C)cc1C1CCNCC1 — log2 fold change (CLB-GE; phosphoproteomics LC-MS/MS, item: LPIN1 phosphorylation; 200 nM, 60 min; relative to: untreated): -2.29
CC(=O)Nc1cccc(-n2c(=O)n(C3CC3)c(=O)c3c(Nc4ccc(I)cc4F)n(C)c(=O)c(C)c32)c1 — viability (NCI-H2087 (BRAF L597V); 50.00 nM, 72 h, unit not given; relative to: DMSO): 0.365
O=C1c2c(O)ccc(O)c2C(=O)c2c(NCCNCCO)ccc(NCCNCCO)c21 — inhibition (BT-12; cell viability, MTT; 10 µM, 72 h): 94.7%
Cn1cc(-c2ccc(-c3cncc(Cl)c3N3CCC4(CCNC4=O)CC3)cc2)cn1 — fold change in expression (COLO 205; microarray, item: FSCN1; concentration not given, 2 h, gene set Fascin; relative to: untreated cells): 2.06
Nc1ccn([C@@H]2O[C@H](CO)[C@@H](O)C2(F)F)c(=O)n1 — viability (HBL-1; 1 µM, 120 h): 8.92%
CCS(=O)(=O)c1nc(C2CC2)cc(C(F)(F)F)n1 — cells with nuclear RelA (HeLa Kyoto; RelA nuclear import, high content imaging; 15.82 µM, 3 h, with: 1 µM PMA, 60 min): 7.82% and 8.24%
CC/C(=N\NC(=O)NCc1cccc(O)c1)c1ccc(O)c(C)c1O — log ratio (SK-OV-3; gene expression, microarray, item: CPA4; 10 µM, 24 h; relative to: DMSO): 4.6
Cc1ccc(S(=O)(=O)N2CCCN(C(=O)c3cc(-c4ccccc4)n[nH]3)CC2)cc1 — IC50 (Plasmodium yoelii; 17XL; 384-well): 0.71 ± 0.231 µM
COc1ccc(-n2nc(C(C)=O)s/c2=N\N=C(/C)c2ccc(NC(=O)c3ccc(C)cc3)cc2)cc1 — toxicity (MCF7; 0.078 µM): 14.5%
O=C(O)CNC(=O)C(=O)O — viability (HBL-1; 1 µM, 120 h): 98.1%
COc1cc2c(Oc3ccc(NC(=O)C4(C(=O)Nc5ccc(F)cc5)CC4)cc3F)ccnc2cc1OCCCN1CCOCC1 — ATP level (hiPSC cardiomyocytes; CellTiter-Glo; concentration not given, 24 h; relative to: vehicle): 112%
NC(=O)c1cccc(N)c1 — viability (HBL-1; 0.1 µM, 120 h): 98.8%
Cn1cc(Nc2nccc(-c3ccc4c(c3)CN(C3COC3)CC[C@H]4NC(=O)c3cn(C(C)(C)C)nn3)n2)cn1 — pathway activation z-score (mouse splenic B cells; item: Thrombopoietin signalling; 30 mg/kg, IgD-activated in vivo; relative to: vehicle, direction not given): 2.71
c1coc(-c2n[nH]cc2-c2ccnc3ccccc23)c1 — log2 fold change (GCN2 (Candida albicans); kinase binding, MIB/MS competition; Candida albicans lysate; 10 µM; relative to: DMSO): -0.31
CCOC(=O)NCCCC(=O)NCCc1ccccc1 — viability (HBL-1; 0.1 µM, 120 h): 130%
Oc1ccccc1-c1n[nH]cc1-c1ccnc2ccccc12 — log2 fold change (KIC1 (Candida albicans); kinase binding, MIB/MS competition; Candida albicans lysate; 10 µM; relative to: DMSO): 0.32
O=P(O)(O)C(O)(Cn1ccnc1)P(=O)(O)O — viability (MDA-MB-231; AlamarBlue; 15 µM, 24 h; relative to: control): 95 ± 5%
O=C(CCCc1ccc(-c2ccccc2F)cc1)Nc1ccc(O)cc1 — inhibition (HeLa expressing Ub(G76V)-GFP; Ub(G76V)-GFP degradation, cycloheximide chase; 12 µM): 30%
c1ccc2c(CCNc3ccc(Nc4ccncc4)cc3)c[nH]c2c1 — inhibition (BT-12; cell viability, MTT; 10 µM, 72 h): 93%
CC(=O)Nc1ccc(NC(=S)NC(=O)c2ccc(C(C)(C)C)cc2)cc1 — viability (HBL-1; 0.5 µM, 120 h): 119%
CC(C)(C)n1nc(Cc2cccc3ccccc23)c2c(N)ncnc21 — inhibition (HeLa expressing Ub(G76V)-GFP; Ub(G76V)-GFP degradation, cycloheximide chase; 12 µM): 42%
CC(=O)Nc1ccc(C(=O)Nc2ccccc2N)cc1 — viability (HBL-1; 1 µM, 120 h): 60.3%
COc1cc(/C=C/C(=O)N2CCC=CC2=O)cc(OC)c1OC — mRNA level (MDA-MB-468; qRT-PCR, item: GGT5; 30 µM, 6 h; relative to: time zero): 106 ± 2.6%

Excerpt of the above:
NC(=O)c1cccc(N)c1 — viability (HBL-1; 0.1 µM, 120 h): 98.8%
CCOC(=O)NCCCC(=O)NCCc1ccccc1 — viability (HBL-1; 0.1 µM, 120 h): 130%
